Measured values collected from several papers.
Compare with care: the assays were run in different laboratories. Numbers after ± are the reported error.

| SMILES | cell line | assay | conditions | inhibition [%] |
| --- | --- | --- | --- | --- |
| CCCCC[C@H](CC(=O)NO)C(=O)N[C@H](C(=O)N1CCC[C@H]1CO)C(C)C | U-937 | cell proliferation | 13 µM, day 4 | 32.3 ± 24.3 |
| CO[C@@]12[C@H](COC(N)=O)C3=C(C(=O)C(C)=C(N)C3=O)N1C[C@@H]1N[C@@H]12 | U-937 | cell growth or viability, ATP luminescence | 10 µM | 100 |
| N#Cc1c(-c2ccccc2)[nH]c2ccccc12 | RAW264.7 | NO release, inhibitor, Griess | 50 µM, 20 h, LPS-stimulated | 70.7 |
| C[C@@H](Oc1cc(-c2cnn(C3CCNCC3)c2)cnc1N)c1c(Cl)ccc(F)c1Cl | NCI-H2228 | cell growth or viability, MTT | 0.008 µg/mL, 72 h | 20.6 |
| COc1cccc(-c2cc(=O)c3ccccc3o2)c1N | NCI-H720 | antagonist, ELISA, item: ERK1/2 phosphorylation | concentration not given, 10 min preincubation, with: lanreotide | 65 ± 17 |
| Nc1ccc2[nH]c(-c3ccccc3)cc2c1 | RAW264.7 | NO release, inhibitor, Griess | 50 µM, 20 h, LPS-stimulated | 67.4 |
| COc1ccc2c(c1)c(CC(=O)O)c(C)n2C(=O)c1ccc(Cl)cc1 | WI-38 | TNF-α release, inhibitor, ELISA | 10 µM, LPS-stimulated | 8.1 |
| CN(C)c1ccc(-c2cc3ccccc3[nH]2)cc1 | RAW264.7 | NO release, inhibitor, Griess | 50 µM, 20 h, LPS-stimulated | 28.8 |
| CC(C)C[C@H](NC(=O)[C@@H](O)[C@H](N)Cc1ccccc1)C(=O)O | U-937 | cell growth or viability | 145 µM | 39.8 |
| C[C@H]1[C@H](C)CC[C@]2(C)CC[C@]3(C)C(=CC[C@@H]4[C@@]5(C)CC[C@@H](O)[C@](C)(C(=O)O)[C@@H]5CC[C@]43C)[C@H]12 | WI-38 | IL-6 release, inhibitor, ELISA | 10 µM, LPS-stimulated | 19.8 |

Some of these lines once more:
| SMILES | cell line | assay | conditions | inhibition [%] |
| --- | --- | --- | --- | --- |
| COc1ccc2c(c1)c(CC(=O)O)c(C)n2C(=O)c1ccc(Cl)cc1 | WI-38 | TNF-α release, inhibitor, ELISA | 10 µM, LPS-stimulated | 8.1 |
